# Measured values of several laboratories.
# “And” joins repeats or separate records; there may be more than shown. Numbers after ± are the reported error.
# CASP1: Caspase-1 (CASP1, Homo sapiens, UniProt P29466)
# Rhomboid protease AarA: Rhomboid protease AarA (Providencia stuartii, UniProt P46116)
SMILES,target,assay,system,setting,how to read,quantity,value
CC(=O)[C@]12NC(C)(C)C[C@@]1(C)C(=O)C1=C2c2c(c3c4n2C(C)(C)CC2=C4[C@@]4(CC(C)(C)N[C@@](C)(C4)C2=O)CC3(C)C)C(=O)C(C)(C)N1 (racemic),"OPRD1 (Homo sapiens, UniProt P41143)","cAMP level, agonist, LANCE Ultra cAMP",CHO,10 µM,,activation,2.44%
O=C(O)C1OC(Oc2cc(O)c3c(=O)c(O)c(-c4ccc(O)cc4)oc3c2)C(O)C(O)C1O (stereo not drawn),"UGT1A1 (Homo sapiens, UniProt P22309)",glucuronidation,cell lysate,,,Vmax,1450 ± 180 pmol/min/mg
CCCCOc1ccc(C(=O)OCCN2CC=CCC2)cc1,"CHRM4 (Homo sapiens, UniProt P08173)",,membranes,"100 µM, 15 h, no carbachol",baseline: control,basal binding,0.72 ± 0.03 fold
CC(C)Oc1cc(Cl)ccc1CNc1cc(-c2ccccc2)nc2ncnn12,"GPR3 (Homo sapiens, UniProt P46089, I200W)",cAMP GloSensor,human cells,100 nM,higher is more cAMP,cAMP luminescence,41500 a.u. and 52700 a.u. and 38700 a.u. and 39200 a.u.
Cc1cc(=O)oc2cc(NC(=O)CCCCCCC(=O)NO)ccc12,"HDAC8 (Homo sapiens, UniProt Q9BY41)",ITC,triethanolamine buffer,"concentration not given, pH 7.5",,binding stoichiometry,0.85
CCCCCCCC/C=C\CCCCCCCC(=O)NCCO,"Trpv1 (Mus musculus, UniProt Q704Y3)","ion current, agonist, whole-cell patch clamp",HEK293,,,Hill coefficient,1.46 ± 0.27
O=C(NC[C@@H](Cc1ccc(F)cc1)N1CCC(O)(C(F)(F)F)CC1)C1(c2ccc(Cl)cc2)CCCC1,"Trpa1 (Rattus norvegicus, UniProt Q6RI86, G878V)",,rat,dose not given,,activity,inactive
CCN1CCN(Cc2ccc(C(=O)Nc3ccc(C)c(NCc4cnc5[nH]ccc5c4OC)c3)cc2C(F)(F)F)CC1,"Tyrosine-protein kinase ABL1, non-phosphorylated (ABL1, Homo sapiens, UniProt P00519, F317L)","binding, competition with immobilised ligand",,1 µM,,remaining binding,4.2%
C[Si](C)(C)C[C@@H](CN)CC(=O)O,"Interleukin-1 receptor type 1 (Il1r1, Mus musculus, UniProt P13504)","binding, radioligand binding",,"75 µM, added: iodinated interleukin-1 beta",,inhibition,19%
Cc1cc(C=C2SC(=O)N(Cc3cccc([N+](=O)[O-])c3)C2=O)c(C)n1-c1ccc(Br)c(Cl)c1,"Heat shock protein HSP 90-alpha, N-terminal domain (HSP90AA1, Homo sapiens, UniProt P07900)","SPR, two-state model",N-terminal domain,,,kon,45.3 ± 31.8 M⁻¹ s⁻¹
CC1(C)C[C@@H](Nc2cccc(-c3sc(C(=O)O)c(OCC(=O)O)c3Cl)c2)CCN1S(=O)(=O)Cc1cccc(NC(=O)CN2CCC(c3ccc4c(c3)oc(=O)n4C3CCC(=O)NC3=O)CC2)c1 (stereo partly drawn),"PTPN2 (Homo sapiens, UniProt P17706, E41K/R35E/R43E)","degrader, bio-layer interferometry",,125 nM,higher = more binding,BLI binding response,0.703 a.u.
OC1Cc2ccccc2CC1N1CCC(c2ccc(Br)cc2)CC1 (racemic),"Vesicular acetylcholine transporter (Rattus norvegicus, UniProt Q62666)",,rat liver (sigma2),,baseline: Ki sigma2 over Ki VAChT,selectivity ratio,4.5
CC(C)C[C@H](NC(=O)[C@H](Cc1ccc(O)cc1)NC(=O)[C@H](CC(N)=O)NC(=O)[C@H](CO)NC(=O)CNC(=O)[C@H](Cc1ccc(O)cc1)NC(=O)[C@H](CC(=O)O)NC(=O)CNC(=O)[C@H](Cc1ccc(O)cc1)NC(=O)[C@H](Cc1ccccc1)NC(=O)[C@@H]1CCCN1C(=O)[C@H](Cc1ccccc1)NC(=O)[C@H](CCC(=O)O)NC(=O)[C@H](CCCNC(=N)N)NC(=O)[C@H](Cc1c[nH]cn1)NC(=O)[C@H](CO)NC(=O)[C@H](Cc1c[nH]cn1)NC(=O)[C@H](Cc1c[nH]cn1)NC(=O)[C@H](CCCCN)NC(=O)[C@H](CCC(=O)O)NC(=O)[C@H](Cc1c[nH]cn1)NC(=O)[C@H](Cc1ccccc1)NC(=O)[C@H](CCCCN)NC(=O)[C@H](CCCNC(=N)N)NC(=O)[C@H](CCCNC(=N)N)NC(=O)[C@H](Cc1ccc(O)cc1)NC(=O)CNC(=O)[C@H](Cc1c[nH]cn1)NC(=O)[C@H](Cc1c[nH]cn1)NC(=O)[C@H](CCCNC(=N)N)NC(=O)[C@H](CCCCN)NC(=O)[C@H](CCC(=O)O)NC(=O)[C@H](Cc1c[nH]cn1)NC(=O)[C@H](COP(=O)(O)O)NC(=O)[C@@H](N)CC(=O)O)C(=O)N[C@@H](Cc1ccc(O)cc1)C(=O)N[C@@H](CC(=O)O)C(=O)N[C@@H](CC(N)=O)C(=O)O,"TMEM97 (Homo sapiens, UniProt Q5BJF2)","binding, SPR",,"25 °C, HEK293-expressed full-length",,kon,327000 M⁻¹ s⁻¹
CC(=O)N[C@@H](CC(=O)O)C(=O)N[C@@H](Cc1ccc2ccccc2c1)C(=O)N[C@@H](C)C(=O)N[C@@H](CC(=O)O)C(=O)COC(=O)c1c(C)cccc1C,CASP1,"enzyme activity, inhibitor",,,,kinact/KI,23100 M⁻¹ s⁻¹
CC(C)[C@@H]1NC(=O)[C@H](Cc2ccccc2)NC(=O)CSC[C@@H](C(N)=O)NC(=O)[C@H](CCC(=O)O)NC(=O)[C@H](CO)NC(=O)[C@H](Cc2c[nH]c3cccc(Cl)c23)NC(=O)[C@H](C2CCCCC2)NC(=O)[C@H](C(C)C)NC(=O)[C@H](Cc2ccc(O)cc2)NC(=O)[C@H](CC(=O)O)NC(=O)[C@H](Cc2c[nH]c3ccccc23)NC(=O)[C@H](Cc2ccc(N)nc2)NC(=O)[C@H](Cc2c[nH]c3ccc(Cl)cc23)NC(=O)[C@H](CCC(=O)O)NC1=O,"Interleukin-1 receptor-like 2 (IL1RL2, Homo sapiens, UniProt Q9HB29)","reporter gene (SEAP), inhibitor, HEK-Blue IL-36R reporter",HEK-Blue IL-36R cells,"11.11 µM, 6 h, added: IL-36β 30 ng/mL",,remaining activity,80.2%
N=C(N)NCCS(=O)(=O)O,"SLC6A6 (Homo sapiens, UniProt P31641, Y138A)","binding, microscale thermophoresis",,"38 nM, fitted curve",higher = more binding,fraction bound,0
CCCCCC(O)/C=C/C=O (stereo not drawn),"CBS (Homo sapiens, UniProt P35520)",acylphosphate-ATP probe SILAC-ABPP,ZAK-transfected HEK293T,"100 µM, added: acylphosphate-ATP probe",baseline: DMSO over compound-treated,probe labelling ratio,0.58
CC(=O)N[C@@H](CC(=O)O)C(=O)N[C@@H](CCC(=O)O)C(=O)N[C@@H](CC(C)C)C(=O)N[C@@H](CC(=O)O)C(=O)COC(=O)c1c(C)cccc1C,CASP1,"enzyme activity, inhibitor",,,,kinact/KI,36000 M⁻¹ s⁻¹
Cc1cc(C)c(NC(=O)C(C(F)(F)F)C(F)(F)F)c(C)c1,Rhomboid protease AarA,,,,baseline: IC50 chymotrypsin over IC50 AarA,selectivity ratio,0.9
CC(=O)N1[C@H](C(=O)N[C@H](C(=O)N[C@@H](Cc2c[nH]cn2)C(=O)N[C@@H](CC(=O)O)C(=O)COC(=O)c2c(C)cccc2C)C(C)(C)C)C[C@@H]2CCCC[C@@H]21,CASP1,"enzyme activity, inhibitor",,,,kinact/KI,6000 M⁻¹ s⁻¹
O=C1CCN1C(=O)NCc1ccccc1,Rhomboid protease AarA,"substrate cleavage, inhibitor, gel-based",,,,IC50,inactive
COc1cc(C2C(NC(=O)c3ccc(NC(=O)OC(C)(C)C)cc3)(C(=O)O)C(c3ccc(OC(=O)c4cccs4)c(OC)c3)C2(NC(=O)c2ccc(NC(=O)OC(C)(C)C)cc2)C(=O)O)ccc1OC(=O)c1cccs1 (stereo not drawn),"GLP1R (Homo sapiens, UniProt P43220, R380A)","cAMP accumulation, agonist",,receptor mutant,baseline: wild type,Emax,68.2 ± 7.12%
CC1C(=O)N(S(=O)(=O)c2ccccc2)C1c1ccccc1 (stereo not drawn),Rhomboid protease AarA,"substrate cleavage, inhibitor, gel-based",,,,IC50,inactive
CC(C=CC=C(C)C=CC1=C(C)CCCC1(C)C)=CC=O,"Rhodopsin (RHO, Homo sapiens, UniProt P08100, P23H)","ER retention, immunostaining co-localization, measured: opsin with calnexin",COS-7 transfected P23H,50.00 µM,,Pearson correlation coefficient,0.57
[N-]=[N+]=N[C@]1(COP(=O)(O)OP(=O)(O)OP(=O)(O)O)O[C@@H](n2ccc(N)nc2=O)[C@@H](F)[C@@H]1O,"Gag-Pol polyprotein, reverse transcriptase (gag-pol, Human immunodeficiency virus type 1 group M subtype B, UniProt P04585)","nucleotide incorporation, substrate",HIV-1,added: DNA template,,Vmax,0.47 product fraction
CC(=O)NCCCC[C@H](NC(C)=O)C(=O)N[C@@H](CCCC(=O)O)C(=O)N[C@@H](C)C(=O)N[C@@H](CC(=O)O)C(=O)COC(=O)c1c(C)cccc1C,CASP1,"enzyme activity, inhibitor",,,,kinact/KI,265000 M⁻¹ s⁻¹
O=S(=O)(O)c1cccc2c(S(=O)(=O)O)cccc12,"E3 ubiquitin-protein ligase XIAP, BIR1 domain (XIAP, Homo sapiens, UniProt P98170)",thermal shift (Sypro Orange),,"1.0 mM, added: XIAP 80 µM",baseline: apoprotein,delta Tm,-2.5 °C

# For quick reference, copied from above:
SMILES,target,assay,system,setting,how to read,quantity,value
CC(=O)[C@]12NC(C)(C)C[C@@]1(C)C(=O)C1=C2c2c(c3c4n2C(C)(C)CC2=C4[C@@]4(CC(C)(C)N[C@@](C)(C4)C2=O)CC3(C)C)C(=O)C(C)(C)N1 (racemic),"OPRD1 (Homo sapiens, UniProt P41143)","cAMP level, agonist, LANCE Ultra cAMP",CHO,10 µM,,activation,2.44%
CCCCOc1ccc(C(=O)OCCN2CC=CCC2)cc1,"CHRM4 (Homo sapiens, UniProt P08173)",,membranes,"100 µM, 15 h, no carbachol",baseline: control,basal binding,0.72 ± 0.03 fold
C[Si](C)(C)C[C@@H](CN)CC(=O)O,"Interleukin-1 receptor type 1 (Il1r1, Mus musculus, UniProt P13504)","binding, radioligand binding",,"75 µM, added: iodinated interleukin-1 beta",,inhibition,19%
